Experimental data from different studies.
Each line is one published result; not all experiments were run side by side. Values joined by “and” are separate records of one study, mostly repeats; a detail may differ. ± gives the spread as reported.
UniProt Q9UM07, sequence (whole entry, looked up): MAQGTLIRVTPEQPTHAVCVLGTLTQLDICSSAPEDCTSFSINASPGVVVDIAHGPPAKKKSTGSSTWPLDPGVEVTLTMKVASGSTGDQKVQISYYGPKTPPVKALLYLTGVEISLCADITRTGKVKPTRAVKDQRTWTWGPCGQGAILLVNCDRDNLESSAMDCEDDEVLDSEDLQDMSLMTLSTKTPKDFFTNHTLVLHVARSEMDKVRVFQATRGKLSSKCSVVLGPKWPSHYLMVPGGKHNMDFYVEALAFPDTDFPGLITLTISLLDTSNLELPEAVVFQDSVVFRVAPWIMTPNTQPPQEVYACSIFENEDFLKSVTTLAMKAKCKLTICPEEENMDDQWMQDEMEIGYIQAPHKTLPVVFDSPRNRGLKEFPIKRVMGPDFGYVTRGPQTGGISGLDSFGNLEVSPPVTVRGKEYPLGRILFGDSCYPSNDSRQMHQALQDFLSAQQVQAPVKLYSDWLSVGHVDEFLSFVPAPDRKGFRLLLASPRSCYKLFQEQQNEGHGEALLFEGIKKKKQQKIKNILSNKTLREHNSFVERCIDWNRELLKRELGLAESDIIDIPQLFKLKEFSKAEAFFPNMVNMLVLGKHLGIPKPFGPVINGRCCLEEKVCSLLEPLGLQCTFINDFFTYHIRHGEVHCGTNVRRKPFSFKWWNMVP
UniProt Q9BYT3, sequence (whole entry, looked up): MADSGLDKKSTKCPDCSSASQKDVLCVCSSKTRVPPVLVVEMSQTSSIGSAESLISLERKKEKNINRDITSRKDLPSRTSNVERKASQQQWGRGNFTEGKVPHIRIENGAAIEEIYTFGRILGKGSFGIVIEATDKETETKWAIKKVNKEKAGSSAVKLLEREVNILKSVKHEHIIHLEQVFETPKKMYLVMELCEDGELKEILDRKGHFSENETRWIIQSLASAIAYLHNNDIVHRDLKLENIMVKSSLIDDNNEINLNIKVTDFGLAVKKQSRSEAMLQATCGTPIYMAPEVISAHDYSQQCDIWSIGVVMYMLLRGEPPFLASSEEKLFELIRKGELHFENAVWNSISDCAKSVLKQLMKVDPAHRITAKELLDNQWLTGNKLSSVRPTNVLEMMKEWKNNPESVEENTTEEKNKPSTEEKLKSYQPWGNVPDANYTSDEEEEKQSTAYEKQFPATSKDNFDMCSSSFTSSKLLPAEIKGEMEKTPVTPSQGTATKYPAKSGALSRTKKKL
UniProt P21731, sequence (whole entry, looked up): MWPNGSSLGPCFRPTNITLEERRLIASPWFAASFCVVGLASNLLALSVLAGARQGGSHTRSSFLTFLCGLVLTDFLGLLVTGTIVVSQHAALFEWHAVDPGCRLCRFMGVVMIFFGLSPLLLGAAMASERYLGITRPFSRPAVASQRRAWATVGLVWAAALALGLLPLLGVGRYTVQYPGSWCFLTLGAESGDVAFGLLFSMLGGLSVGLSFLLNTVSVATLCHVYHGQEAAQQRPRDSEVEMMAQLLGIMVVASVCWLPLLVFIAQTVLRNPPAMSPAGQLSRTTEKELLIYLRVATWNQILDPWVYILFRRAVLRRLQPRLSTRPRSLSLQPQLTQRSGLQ
UniProt P53778, sequence (whole entry, looked up): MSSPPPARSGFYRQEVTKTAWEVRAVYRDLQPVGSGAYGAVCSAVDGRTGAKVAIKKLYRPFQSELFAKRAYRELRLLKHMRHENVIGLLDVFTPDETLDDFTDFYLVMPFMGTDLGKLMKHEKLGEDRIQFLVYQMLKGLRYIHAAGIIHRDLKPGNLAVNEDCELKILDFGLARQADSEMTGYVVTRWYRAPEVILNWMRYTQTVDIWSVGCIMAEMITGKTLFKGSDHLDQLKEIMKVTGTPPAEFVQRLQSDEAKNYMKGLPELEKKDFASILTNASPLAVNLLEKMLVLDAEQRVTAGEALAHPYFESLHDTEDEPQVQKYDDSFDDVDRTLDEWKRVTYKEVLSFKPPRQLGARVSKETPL
UniProt Q9QYR9, sequence (whole entry, looked up): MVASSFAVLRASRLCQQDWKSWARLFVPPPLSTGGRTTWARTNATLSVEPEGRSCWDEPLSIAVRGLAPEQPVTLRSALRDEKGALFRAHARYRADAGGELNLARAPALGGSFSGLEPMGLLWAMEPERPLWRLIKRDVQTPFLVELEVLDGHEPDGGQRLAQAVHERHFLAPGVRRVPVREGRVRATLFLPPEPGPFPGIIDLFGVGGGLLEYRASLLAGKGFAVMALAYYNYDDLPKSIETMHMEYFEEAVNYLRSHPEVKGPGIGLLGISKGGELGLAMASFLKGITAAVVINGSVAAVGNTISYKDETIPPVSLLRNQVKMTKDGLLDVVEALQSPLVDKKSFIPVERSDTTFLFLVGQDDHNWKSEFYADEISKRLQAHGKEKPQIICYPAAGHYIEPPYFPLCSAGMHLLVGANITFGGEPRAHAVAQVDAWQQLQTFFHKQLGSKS
UniProt Q15375, sequence (whole entry, looked up): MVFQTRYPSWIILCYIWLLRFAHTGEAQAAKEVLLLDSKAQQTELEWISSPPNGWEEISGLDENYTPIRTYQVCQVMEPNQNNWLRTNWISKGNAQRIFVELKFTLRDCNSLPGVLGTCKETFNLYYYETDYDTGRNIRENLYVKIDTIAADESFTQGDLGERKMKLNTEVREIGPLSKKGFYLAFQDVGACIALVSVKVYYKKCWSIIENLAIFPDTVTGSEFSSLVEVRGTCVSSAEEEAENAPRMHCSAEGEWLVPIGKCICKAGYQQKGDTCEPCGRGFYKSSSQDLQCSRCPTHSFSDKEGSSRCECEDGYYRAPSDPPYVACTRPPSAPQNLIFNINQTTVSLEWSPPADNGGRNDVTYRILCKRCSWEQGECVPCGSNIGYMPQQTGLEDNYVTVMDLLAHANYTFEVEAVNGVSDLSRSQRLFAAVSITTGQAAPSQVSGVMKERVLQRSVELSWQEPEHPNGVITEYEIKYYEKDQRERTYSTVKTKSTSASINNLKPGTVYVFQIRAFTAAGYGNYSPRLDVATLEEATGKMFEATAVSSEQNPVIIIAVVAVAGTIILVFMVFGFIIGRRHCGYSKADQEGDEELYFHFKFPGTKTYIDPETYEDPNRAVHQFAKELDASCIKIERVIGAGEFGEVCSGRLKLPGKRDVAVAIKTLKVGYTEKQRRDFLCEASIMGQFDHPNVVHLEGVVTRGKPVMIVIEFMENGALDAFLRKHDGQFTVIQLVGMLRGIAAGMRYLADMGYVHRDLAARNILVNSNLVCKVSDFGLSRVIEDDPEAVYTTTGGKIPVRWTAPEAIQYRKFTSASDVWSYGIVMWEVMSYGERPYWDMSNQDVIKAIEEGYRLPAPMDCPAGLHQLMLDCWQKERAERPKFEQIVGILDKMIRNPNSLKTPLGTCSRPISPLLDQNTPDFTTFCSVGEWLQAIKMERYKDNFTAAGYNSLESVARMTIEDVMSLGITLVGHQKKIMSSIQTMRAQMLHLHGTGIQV
UniProt P21554, sequence (whole entry, unmodified, looked up): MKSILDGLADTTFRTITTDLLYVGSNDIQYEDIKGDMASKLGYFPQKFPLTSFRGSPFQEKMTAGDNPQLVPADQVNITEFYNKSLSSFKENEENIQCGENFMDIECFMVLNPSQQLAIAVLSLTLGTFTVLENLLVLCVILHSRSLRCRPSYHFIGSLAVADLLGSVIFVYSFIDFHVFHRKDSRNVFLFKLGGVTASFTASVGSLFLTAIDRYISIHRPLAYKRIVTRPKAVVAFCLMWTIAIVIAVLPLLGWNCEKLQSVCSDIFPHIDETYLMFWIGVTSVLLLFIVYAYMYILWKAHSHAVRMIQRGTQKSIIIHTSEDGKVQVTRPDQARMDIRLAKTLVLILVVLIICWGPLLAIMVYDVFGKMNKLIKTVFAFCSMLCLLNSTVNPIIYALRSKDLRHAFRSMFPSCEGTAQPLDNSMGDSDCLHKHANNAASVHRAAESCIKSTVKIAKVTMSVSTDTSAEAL
UniProt Q15910, sequence (whole entry, looked up): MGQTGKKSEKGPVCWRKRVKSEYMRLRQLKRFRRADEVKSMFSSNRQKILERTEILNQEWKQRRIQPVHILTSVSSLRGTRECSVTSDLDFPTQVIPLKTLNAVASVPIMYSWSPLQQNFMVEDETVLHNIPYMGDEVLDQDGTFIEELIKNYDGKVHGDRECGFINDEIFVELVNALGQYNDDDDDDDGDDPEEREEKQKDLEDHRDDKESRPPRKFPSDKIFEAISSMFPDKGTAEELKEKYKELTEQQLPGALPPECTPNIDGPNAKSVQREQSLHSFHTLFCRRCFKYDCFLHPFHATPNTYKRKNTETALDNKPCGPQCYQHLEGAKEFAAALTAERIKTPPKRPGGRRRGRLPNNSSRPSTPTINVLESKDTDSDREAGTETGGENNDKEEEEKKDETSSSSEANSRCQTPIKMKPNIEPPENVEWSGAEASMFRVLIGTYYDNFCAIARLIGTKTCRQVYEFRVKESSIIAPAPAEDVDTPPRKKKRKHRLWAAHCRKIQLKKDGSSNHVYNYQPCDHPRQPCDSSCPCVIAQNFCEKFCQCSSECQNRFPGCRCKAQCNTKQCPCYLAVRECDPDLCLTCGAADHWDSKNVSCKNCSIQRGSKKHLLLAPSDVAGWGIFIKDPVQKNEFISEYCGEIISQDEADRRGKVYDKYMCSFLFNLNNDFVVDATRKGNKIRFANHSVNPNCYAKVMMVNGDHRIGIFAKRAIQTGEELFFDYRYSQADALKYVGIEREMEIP
UniProt O14965, sequence (whole entry, looked up): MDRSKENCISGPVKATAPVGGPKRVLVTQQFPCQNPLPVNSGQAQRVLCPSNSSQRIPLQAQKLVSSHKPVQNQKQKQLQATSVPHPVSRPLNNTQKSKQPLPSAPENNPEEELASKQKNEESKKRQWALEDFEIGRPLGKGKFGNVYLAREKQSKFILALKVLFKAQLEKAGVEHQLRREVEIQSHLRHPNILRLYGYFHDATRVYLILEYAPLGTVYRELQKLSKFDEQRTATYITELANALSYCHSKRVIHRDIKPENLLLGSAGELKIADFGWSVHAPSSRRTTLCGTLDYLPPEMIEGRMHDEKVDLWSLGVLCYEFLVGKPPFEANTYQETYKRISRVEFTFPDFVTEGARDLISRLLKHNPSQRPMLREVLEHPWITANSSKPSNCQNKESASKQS

`O=C1NC2(CC2)COc2ncc(F)cc2[C@H]2COCCN2c2ccn3ncc1c3n2` has a body weight of 482 ± 41.3 g (Sprague-Dawley rat, male; oral, 20 mg/kg/day, end of recovery, 4-week repeated-dose toxicity).
The residence time of `CSc1cc(C)[nH]c(=O)c1CNC(=O)c1c(C)n([C@H](C)C2CCN(CC(F)(F)F)CC2)c2ccccc12` is reported as 564 min (EZH2 (Homo sapiens, UniProt Q15910); enzyme activity).
The Hill slope of `CC(C)CC(C(=O)N1CC2(CC1C#N)C(=O)Nc1ccccc12)N(C)C(=O)c1cc2c(F)cc(F)c(F)c2[nH]1` (stereo not drawn) is reported as -1.38 (Cathepsin E (CTSE, Homo sapiens, UniProt P14091)).
For `Nc1ccc(/C=C/C(=O)N2CCc3c(oc4c(-c5ccc(F)cc5)cc(-c5ccc(C(=O)N6CCC(F)(F)CC6)cn5)cc34)C2)cn1`, the remaining binding was 91% (Aurora kinase A (AURKA, Homo sapiens, UniProt O14965); binding, competition with immobilised ligand; 1 µM).
For `CC(C)[C@H]1NC(=O)C[C@H]2/C=C/CCSSC[C@@H](NC1=O)C(=O)N[C@H](Cc1cccc3ccccc13)C(=O)NCC(=O)O2`, the inhibition was 1.5% (MAPK12 (Homo sapiens, UniProt P53778); enzyme activity, inhibitor; 10 µM).
`O=C1NC(=O)c2c1c1cc(F)c[n+]3c1c1c2c2cc(O)ccc2[n]1[Ru-4]312([N]=C=S)[S+]3CC[S+]1CC[S+]2CC3` (stereo not drawn) gave a remaining activity of 109% (EPHA7 (Homo sapiens, UniProt Q15375); enzyme activity; 100 nM, human enzyme, with: 10 µM ATP; relative to: untreated).
`N[C@H](C(=O)N1CCCC1)C1CCN(c2nccc3c(-c4ncc(Cl)cc4Cl)cccc23)CC1` gave a kcat of 0.96 s⁻¹ and 0.98 s⁻¹ (PADI4 (Homo sapiens, UniProt Q9UM07); enzyme activity; 0.006291 µM, low-affinity site, with: Ca2+ 0.25 mM).
`Cc1ccc2c(C(C[N+](=O)[O-])c3cccs3)c(-c3ccccc3)[nH]c2c1` (stereo not drawn) gave a delta log(tau/KA) of -0.03 ± 0.01 (CNR1 (Homo sapiens, UniProt P21554, N393A); G protein activation).
The SILAC ratio of `CC(C)CC(O)(CC(C)C)c1cn(C(=O)N2CCCC2)nn1` is reported as 1.51 (Acyl-coenzyme A thioesterase 2, mitochondrial (Acot2, Mus musculus, UniProt Q9QYR9); probe labelling, inhibitor, competitive ABPP-SILAC, measured: Acot2; mouse T cells; concentration not given, 4 h, in situ, protein level; relative to: treated over DMSO, lower = more inhibition).
With `CN(C)[C@H]1C[C@@]23CC[C@@]4(O2)C(=CC[C@]2(C)[C@@H](c5ccc6ccncc6c5)CC[C@H]24)C=C3[C@@H](O)[C@@H]1O` the inhibition was -4.2% (FER (Homo sapiens, UniProt P16591); ATP probe labelling, inhibitor, KiNativ profiling; 1 µM).
The inhibition of `CS(C)(=O)=Nc1ccc(-c2ccc(-c3nc4cc(O[C@@H]5CO[C@H]6[C@@H]5OC[C@H]6O)[nH]c4cc3F)cc2)cc1` is reported as 5% (STK33 (Homo sapiens, UniProt Q9BYT3); enzyme activity, inhibitor; 10 µM).
`Cc1sc2c(c1C)C(c1ccc(Cl)cc1)=NC(CC(=O)OC(C)(C)C)c1nnc(C)n1-2` (stereo not drawn) has a specific binding of 119% (TBXA2R (Homo sapiens, UniProt P21731); antagonist radioligand binding; 1 µM).

Excerpt of the above:
The Hill slope of `CC(C)CC(C(=O)N1CC2(CC1C#N)C(=O)Nc1ccccc12)N(C)C(=O)c1cc2c(F)cc(F)c(F)c2[nH]1` (stereo not drawn) is reported as -1.38 (Cathepsin E (CTSE, Homo sapiens, UniProt P14091)).
For `Nc1ccc(/C=C/C(=O)N2CCc3c(oc4c(-c5ccc(F)cc5)cc(-c5ccc(C(=O)N6CCC(F)(F)CC6)cn5)cc34)C2)cn1`, the remaining binding was 91% (Aurora kinase A (AURKA, Homo sapiens, UniProt O14965); binding, competition with immobilised ligand; 1 µM).
